Measured values gathered from unrelated publications.
Numbered parts are unrelated; each lists some results of a single study.

Block 1
Target: Interferon regulatory factor 5, full length, phosphomimetic (IRF5, Homo sapiens, UniProt Q13568-2, residues 1-514, S451D/S453D/S456D/S462D)
Method: protein-binding microarray
Molecule type: double-stranded DNA, one strand shown
Matrix: in vitro
Tested at: 940 nM top
Notes: 60-bp whole probe
Together with: salmon DNA 0.4 mg/ml
Relative to: random background probes
Reading: higher = stronger binding
Quantity: fitted relative affinity
Constant ends, left off below: GCCTAGCAC … GTCTTGATTCGCTTGACGCTGCTG
TTAGGTGTCGGACTGGGTTAGTGCTAG: -0.0818 z-score
TCACATTTTTTTTGCAAACTGTGCTAG: 1.01 z-score
GACGTACTGAGTATCGAGACGTGCTAG: 1.57 z-score
GACGGTTTCGACACGGGGGACGTGCTA: 8.97 z-score
TTAAATTTCAGTTTCGATTAGTGCTAG: 9.5 z-score

Block 2
Target: Histone acetyltransferase KAT6A, winged helix 2, GST fusion (KAT6A, Homo sapiens, UniProt Q92794, residues 85-181)
Method: protein binding microarray
Molecule type: double-stranded DNA, one strand shown
Matrix: in vitro
Tested at: not given
Notes: 8-mer, flanks averaged, mean of 2 arrays, mostly near background
Relative to: not given
Reading: higher = stronger binding
Quantity: E-score
Target sequence (chain): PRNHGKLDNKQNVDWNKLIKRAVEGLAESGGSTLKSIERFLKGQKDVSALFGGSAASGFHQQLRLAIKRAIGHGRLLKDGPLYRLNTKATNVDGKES
ATACACAC: 0.0488
CTCTCGTC: 0.0733
CGATGCCA: 0.0426
GATTGCTA: -0.065
ATTCGCAA: 0.182
TATGCTGA: 0.0269

Block 3
Target: Sal-like protein 4, full length isoform A (SALL4, Homo sapiens, UniProt Q9UJQ4, residues 1-1053)
Chain of UniProt Q9UJQ4 (whole entry, looked up): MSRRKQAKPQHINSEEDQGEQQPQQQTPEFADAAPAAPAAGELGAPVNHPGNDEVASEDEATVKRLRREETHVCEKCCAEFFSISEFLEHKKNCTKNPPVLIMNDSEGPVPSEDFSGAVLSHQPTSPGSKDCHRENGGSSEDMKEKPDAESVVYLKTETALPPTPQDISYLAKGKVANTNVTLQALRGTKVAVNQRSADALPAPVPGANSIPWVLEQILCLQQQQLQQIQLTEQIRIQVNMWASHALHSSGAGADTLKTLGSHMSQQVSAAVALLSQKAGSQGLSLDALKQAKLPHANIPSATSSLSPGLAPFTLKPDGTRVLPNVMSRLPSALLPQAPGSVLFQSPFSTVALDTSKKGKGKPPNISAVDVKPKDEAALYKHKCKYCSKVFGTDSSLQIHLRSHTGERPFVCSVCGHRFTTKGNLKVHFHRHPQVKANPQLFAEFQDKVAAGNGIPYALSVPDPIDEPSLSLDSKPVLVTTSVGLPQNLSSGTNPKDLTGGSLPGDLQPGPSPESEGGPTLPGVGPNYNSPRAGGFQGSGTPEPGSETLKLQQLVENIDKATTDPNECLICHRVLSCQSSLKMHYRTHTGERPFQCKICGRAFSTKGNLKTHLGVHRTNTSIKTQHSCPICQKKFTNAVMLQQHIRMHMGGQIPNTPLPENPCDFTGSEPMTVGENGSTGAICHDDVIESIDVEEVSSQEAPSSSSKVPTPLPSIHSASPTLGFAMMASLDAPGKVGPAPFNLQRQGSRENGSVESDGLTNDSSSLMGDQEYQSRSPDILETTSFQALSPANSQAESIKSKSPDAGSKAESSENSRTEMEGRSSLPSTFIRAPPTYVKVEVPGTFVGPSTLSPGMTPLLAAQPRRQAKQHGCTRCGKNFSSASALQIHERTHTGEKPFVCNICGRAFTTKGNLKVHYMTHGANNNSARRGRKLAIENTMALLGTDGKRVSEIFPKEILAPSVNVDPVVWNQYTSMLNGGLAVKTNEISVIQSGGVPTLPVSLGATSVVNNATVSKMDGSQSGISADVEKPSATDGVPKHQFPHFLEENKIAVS
Method: universal PBM
Molecule type: double-stranded DNA, one strand shown
Matrix: in vitro
Tested at: 600 nM
Notes: 8-mer, flanks averaged, mean of replicates
Reading: higher = stronger binding
Quantity: E-score
CTCACCTC: -0.229
GTCTTGCA: 0.0866
CACGTCAA: -0.0132
CTGCATGA: -0.127

Single results of other studies
PhoQ, residues 284 288 289 292 302 303 ALAMYF  fold induction (PhoP, residues 12 14 15 18 19 GQALL (Escherichia coli, UniProt P23836); Sort-seq, refers to: YFP reporter; E. coli; PhoQ-PhoP variant library, together with: 10 µM Mg2+; relative to: high Mg2+ state, higher = stronger signaling): 27.2

For quick reference, copied from above (block 2):
ATACACAC: 0.0488
